# Assay results of several laboratories.
# Lines come from different studies, so protocols differ. Values joined by “and” are separate records of one study, mostly repeats; a detail may differ. ± gives the spread as reported.
# Cell line: HUVEC
SMILES,test,setting,how to read,endpoint,result
COCC[C@@H]1NC(=O)[C@@H](Cc2ccccc2)N(C)C(=O)[C@@H]2CCCN2C(=O)[C@H](CC(C)C)N(C)C(=O)CCC(=O)Nc2cccc(c2)[C@@H](CCc2ccc(OC)c(OC)c2)OC(=O)[C@@H]2CCCCN2C(=O)C(=O)C(C)(C)COC(=O)C=CCCN(C)C1=O,"thymidine uptake, inhibitor",,,IC50,1.1 ± 0.3 µM
CC[C@H](C)[C@H](NC(=O)C[C@H](CCCCN)NC(=O)[C@H](CCCCN)NC(=O)C[C@@H](NC(=O)[C@@H](NC(=O)C[C@H](CCCCN)NC(=O)[C@H](Cc1ccccc1)NC(=O)C[C@H](CC(C)C)NC(=O)CN)[C@@H](C)CC)[C@@H](C)CC)C(=O)N[C@H](CC(=O)N[C@@H](CCCCN)C(=O)N[C@H](CC(=O)N[C@@H](Cc1ccccc1)C(N)=O)CC(C)C)CC(C)C,cytotoxicity,,,IC50,5.4 µg/mL
CNC(NN=Cc1ccc([N+](=O)[O-])o1)=[S+][Au-][Cl],"total tube length, tube formation","IC10, 16 h",relative to: untreated,inhibition,37.7%
O=C(O)c1ccc(-c2ccc(O)cc2)c2c1C=C(c1ccc(O)cc1)OC2(c1ccc(O)cc1)c1ccc(O)cc1,"cell growth or viability, MTT",48 h,,IC50,> 50 µM
COc1ccc(CC[C@H]2OC(=O)[C@@H]3CCCCN3C(=O)C(=O)C(C)(C)COC(=O)C=CCCN(C)C(=O)[C@H](C)N(C)C(=O)[C@H]3CCCN3C(=O)[C@H](Cc3ccccc3)N(C)C(=O)[C@H](Cc3ccccc3)NC(=O)CCC(=O)Nc3cccc2c3)cc1OC,"thymidine uptake, inhibitor",,,IC50,> 20 µM
CC[C@H](C)[C@H](NC(=O)[C@H](CCCCN)NC(=O)[C@H](Cc1ccccc1)NC(=O)[C@H]1CCC[C@@H]1NC(=O)[C@@H](N)CCCCN)C(=O)N[C@H](CC(=O)N[C@@H](CCCCN)C(=O)N[C@@H](CCCCN)C(=O)N[C@H]1CCC[C@@H]1C(=O)N[C@@H](C)C(=O)N[C@@H](CCCCN)C(=O)N[C@@H](CO)C(=O)N[C@H](CC(N)=O)Cc1ccccc1)[C@@H](C)CC,cytotoxicity,,,IC50,> 128 µg/mL
O=Cc1ccc2c(c1C#Cc1ccc(O)cc1)C(c1ccc(O)cc1)(c1ccc(O)cc1)c1cc(O)ccc1-2,"cell growth or viability, MTT",48 h,,IC50,> 50 µM
CC[C@H](C)[C@H](NC(=O)[C@H](CCCCN)NC(=O)[C@H](Cc1ccccc1)NC(=O)C[C@H](CC(C)C)NC(=O)CN)C(=O)N[C@H](CC(=O)N[C@@H](CCCCN)C(=O)N[C@@H](CCCCN)C(=O)N[C@H](CC(=O)N[C@@H](C)C(=O)N[C@@H](CCCCN)C(=O)N[C@@H](CO)C(=O)N[C@H](CC(N)=O)Cc1ccccc1)[C@@H](C)CC)[C@@H](C)CC,cytotoxicity,,,IC50,51.1 µg/mL
COc1ccc(NC(=O)c2ccc3[nH]c(-c4ccc(N(C)C)cc4)nc3c2)cn1,Caspase-Glo,"8 µM, 16 h, unit not given",relative to: DMSO,caspase-3/7 activity,0.568 and 0.583 and 0.945
